Published values from different studies.
A part holds a random share of what one study measured.

Sample 1 — method: protein-binding microarray; form: double-stranded DNA, one strand shown; sample: in vitro; concentration: 0.8 µM; notes: whole 60-bp probe, no competitor; direction: higher = stronger binding; constant ends, left off below: … GTCTTGATTCGCTTGACGCTGCTG
Target: Centromere-binding protein 1, full length, N-terminal tag (CBF1, Saccharomyces cerevisiae, UniProt P17106, residues 1-351)
Sequence of UniProt P17106 (whole entry, looked up): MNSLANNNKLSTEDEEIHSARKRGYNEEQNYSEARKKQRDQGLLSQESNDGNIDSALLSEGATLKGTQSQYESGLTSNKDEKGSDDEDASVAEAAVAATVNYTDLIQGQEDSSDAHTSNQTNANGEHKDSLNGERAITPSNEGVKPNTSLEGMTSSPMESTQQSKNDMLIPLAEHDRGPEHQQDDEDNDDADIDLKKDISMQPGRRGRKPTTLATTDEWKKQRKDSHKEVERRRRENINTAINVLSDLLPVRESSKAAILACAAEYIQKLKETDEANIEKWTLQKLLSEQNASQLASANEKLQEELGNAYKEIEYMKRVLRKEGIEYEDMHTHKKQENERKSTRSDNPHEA
| Oligonucleotide | fluorescence intensity |
| --- | --- |
| CTAACTTTTGAAGAGCACATGTAATATTTGCTCTTC | 751 a.u. |
| GAATTGAAGAAGAAAAACATCAGGGACAGATGATAG | 545 a.u. |
| CTAAGCGTAATTGATTTCGTGATAGTTCGATCCTTC | 507 a.u. |
| CTAGAGGAGCTTTAAAACATCAGGATAGTGTGCTTC | 501 a.u. |
| CTATAGTAAAATGATGGTGTGGAAGACATAGATTTC | 517 a.u. |
| CTATGGCATTTTAAGCACATGAGGAGATGAACGTTC | 650 a.u. |
| CCTAACTACTATATCCATGTGAGATAGCTTCGTACA | 584 a.u. |
| CCTAACTACTATAAACACGCTCAATAGCTTCGTACA | 519 a.u. |
| CTAGGCATAAGAAGGCACGTCCCCTGAAAGTAGTTC | 507 a.u. |
| GAATTCTGCCTATGCAAGGTGACCGTTTTTGCATAG | 524 a.u. |
| CTATGAAGTACATAATGCATCATGAAGAAAGAATTC | 563 a.u. |
| CTAATAATGTCTTACCACCACACCCACACACATTTC | 555 a.u. |
| CCTAACTACTATAGTCACATTAAATAGCTTCGTACA | 550 a.u. |
| GAATTCTTTCTGCATCACGGTGGGCCTTGCCCTTAG | 562 a.u. |
| CTAAAAGAAAGGCAACACATGAAAGGAAGAAAATTC | 556 a.u. |
| CTATAGCAGAACAAACACATGATATATTCAAAATTC | 881 a.u. |
| GAACGGCTATCGTATCACATGATAGTCACGTGCTAG | 20200 a.u. |
| GAAAAACAAATATTGCACGTGATACAAAATGTATAG | 19500 a.u. |

Sample 2 — method: protein-binding microarray; form: double-stranded DNA, one strand shown; sample: in vitro; concentration: 2200 nM top; notes: 60-bp whole probe; added: salmon DNA 0.4 mg/ml; reference: random background probes; direction: higher = stronger binding; constant ends, left off below: GCCTAGCAC … GTCTTGATTCGCTTGACGCTGCTG
Target: Interferon regulatory factor 7, full length, phosphomimetic (IRF7, Homo sapiens, UniProt Q92985, residues 1-503, S471D/S472D/S475D/S476D/S477D/S483D/S484D/S487D)
Target sequence (chain): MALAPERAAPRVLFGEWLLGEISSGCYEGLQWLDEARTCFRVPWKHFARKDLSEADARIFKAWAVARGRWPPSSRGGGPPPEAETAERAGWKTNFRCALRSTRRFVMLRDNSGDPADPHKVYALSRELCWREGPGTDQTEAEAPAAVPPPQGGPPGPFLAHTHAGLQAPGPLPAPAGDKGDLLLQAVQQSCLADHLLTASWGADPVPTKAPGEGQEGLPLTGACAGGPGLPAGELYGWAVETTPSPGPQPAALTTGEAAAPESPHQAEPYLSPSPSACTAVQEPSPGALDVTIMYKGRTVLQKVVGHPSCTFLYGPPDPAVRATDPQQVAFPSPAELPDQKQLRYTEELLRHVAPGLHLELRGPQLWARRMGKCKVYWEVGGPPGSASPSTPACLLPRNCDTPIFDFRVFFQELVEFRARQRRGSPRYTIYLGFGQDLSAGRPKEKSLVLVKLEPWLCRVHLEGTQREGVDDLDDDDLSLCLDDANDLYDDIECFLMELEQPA
| Oligonucleotide | fitted relative affinity [z-score] |
| --- | --- |
| GACGGACTGGACTTTCAGGACGTGCTA | -0.112 |
| CGGGGGTGGGGAGAGCCCCTGTGCTAG | 0.676 |
| TTAGGACTCGGGACTGGGTTAGTGCTA | -0.612 |
| TTCGCTTTCTTTAACTCATTGTGCTAG | 2.36 |
| CCAGCTCTTTCGTTACTTCCTGTGCTA | 3.14 |
| TCAACTCTCTCCATGTGACTGTGCTAG | 1.39 |
| TCAATTATCCTTGTCCCACTGTGCTAG | 1.41 |
| TCACCTGTGCTATTTATAACTGTGCTA | 0.752 |
| TTACGTCTCCTTATCCTTTAGTGCTAG | 2.39 |
| TCAGATAACTTTTTTTTACTGTGCTAG | 0.0244 |
| GACGAACTGGGGTCTGGAGACGTGCTA | -0.236 |
| TCATGTCTGGGTATTTTACTGTGCTAG | 0.737 |
| GACGGTTTCGGACTGGGGAGGTGCTAG | 3.44 |
| TTAGGTTTTCTTTTCCTTTAGTGCTAG | 3.62 |
| GTAGGTTTCGGTCTCGGTTAGTGCTAG | 6.41 |
| CTCCCTTTCAGTTTTCCTCTGTGCTAG | 4.61 |
| CATCATTGCCTGTTTTTCCCCGTGCTA | 1.78 |
| TCACATCTCTGTCCGTGACTGTGCTAG | 2.27 |
| CTTTTATTAGTGACTCAGCACGTGCTA | 0.364 |
| TTAGAACTGGGCTATCGATTAGTGCTA | -0.815 |
| TTAGATATCAGTTTAGATTAGTGCTAG | 0.0192 |
| TTAAGACTGGGTATCGGTTAGTGCTAG | -0.348 |
| TCATCTCAGAATCTCTCACTGTGCTAG | 0.841 |
| GACGCTTCCGGTTTCGGGACGTGCTAG | 6.07 |
| TTAGATTTCATTTTCGATTAGTGCTAG | 8.59 |

Sample 3 — method: RNA Bind-n-Seq; form: RNA; sample: in vitro; concentration: not given; notes: RNA with constant flanks, ends assumed; reference: input RNA pool; direction: higher = stronger binding
Target: RING finger protein unkempt homolog, zinc fingers 1-6, GST-SBP tag (UNK, Homo sapiens, UniProt Q9C0B0, residues 30-357)
Sequence of UniProt Q9C0B0 (30-357, looked up): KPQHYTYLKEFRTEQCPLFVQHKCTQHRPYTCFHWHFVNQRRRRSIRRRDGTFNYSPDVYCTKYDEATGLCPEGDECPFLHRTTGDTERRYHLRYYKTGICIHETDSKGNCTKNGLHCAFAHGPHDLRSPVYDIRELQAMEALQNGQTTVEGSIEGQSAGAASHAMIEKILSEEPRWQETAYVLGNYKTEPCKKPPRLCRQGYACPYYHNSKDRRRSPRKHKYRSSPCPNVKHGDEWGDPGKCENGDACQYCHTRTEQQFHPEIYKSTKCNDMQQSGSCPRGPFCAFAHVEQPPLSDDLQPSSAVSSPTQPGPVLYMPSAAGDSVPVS
Constant ends, left off below: GGGAGUUCUACAGUCCGACGAUC … CAACAGAGGAUUGAGCAUCA
| Oligonucleotide | bound/input enrichment |
| --- | --- |
| CAGGGACGCUUUGAUGUAAAAAUUGAAAUUAAGAGCUGAUCACAAGCACAAAUCUUUCCCACCCGCCAUUUAAUAAGUUAAAAAAAGAUACACAAACCUACUAGUCUUGAACAAACUGUC | 1.15 ratio |
| GACGCCUCAGAUUUUGAGCAUAUCACUGCAGACACCCCGUCUCGGCCCCUGUCAGCCACCCGCAACCCUUUUAAGAGCUCCAAGGGCUCCCCUACUGGGAGCUCCCCAAACAAUGCAAGU | 0.373 ratio |
| ACUCAGAAGCCGAUUCAUCAGCUUUUUGAUUACAUCUGUGGAGUAAGCACAGGGGCCAUAUCCGCAUUUAUGCUGGGAUUGUUUCACAUGCCGCUGGAUGAAUGUGAGGAACUCUAUCGA | 0.137 ratio |
| UGGUGUACAAAUACGACAUUUUUGCAAGAAGGAAUGCCUACUUCUGCACGAUGUGAUGAUUCCGAAGCUUUGAAAAAGAAGGGUUGCCAGCCAAGUGACAUAGAGAAUCCCAGAGGCUCU | 0.0903 ratio |
| UAAGAUGUAUUCUGUACAUAAUUUACAAAUAAAACAUUUUAUUUUAAUUGUUACUUAUUAUUCCGACAUUUCUCAACACUGAAAUUUGUAAAACAAAAACCAUGUAAGGUAUGUUUUUAG | 0.227 ratio |
| AUUCUUUUAUCACCAAAAAAGAGAAGAAAUAUUGCAGUGAAUGAAGAUUCCUCUGCAUUUCCGCACUGCUUUUUCAACUGUAGUUGGCUUUUGAAUGAGGAUGACAAUGGAAGAGAUGAA | 0.167 ratio |
| CCACUAUCAGAAACAGAAAUGGCUCUGGGCAAGGAUGUGACUCCACCUCCAGAAACAGAAGCCGUUCUCAUCAAGAACGUAUGUCUGCCUCCAGAAAUGGAGGUGGCCCUGACUGAGGAU | 0.1 ratio |
| UUACGCAUUGGAGUUGAUAACCACGUGUUACCCUUGGACUGUGUUACUCUGCAGACGUUCUCCGCAAAGUGCUUAGGACCCUUCGAUGAGUGGGAAAGCCGGCUAAGGGUGGCAAAGGAG | 0.123 ratio |
| GGGCCUCUGUUCAAUACUGACUAUGACAUCCUUAAAAGCAACUUGCAGAACUGCAGCAAAUUCCGUGCUAUACAAUGUGCAGCUGCCGUCCCUAGAGCUCCUGCUGAAUCCUCUUCGUCU | 0.25 ratio |
| CCCACUAAACCAUCUCUCAGGCUCCUGAGAGGUUUUUUGUUUGUUUGUUUUUGUUUUUUAAACCGGUCUCAGCUGGCCUGGAGCUUGCAGUGUAGAUCAGGCUGGCCUAGAGCUUACUGA | 0.203 ratio |
| ACUAACUCCUACUGCCGACGAACCGAAAAAUAAUUAAUGCAGAGGAGAUUUAUGUCUCCGCCAUAACUCCAGUUGUACAACUCAAUCGCCCCAUUCUCUUUUACGGUUCAAAAUGUACUG | 0.202 ratio |

Sample 4 — method: protein binding microarray; form: double-stranded DNA, one strand shown; sample: in vitro; concentration: not given; reference: not given; direction: higher = stronger binding
Target: Histone acetyltransferase KAT6A, winged helix 2, GST fusion (KAT6A, Homo sapiens, UniProt Q92794, residues 85-181)
Notes: 8-mer, flanks averaged, mean of 2 arrays, mostly near background
Construct (chain): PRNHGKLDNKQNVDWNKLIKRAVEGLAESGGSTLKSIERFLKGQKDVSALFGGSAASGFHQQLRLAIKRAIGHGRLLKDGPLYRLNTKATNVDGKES
| Oligonucleotide | E-score |
| --- | --- |
| TGGCCGAA | 0.108 |
| GTACCAAC | 0.133 |
| ACAGAGCA | 0.115 |
| CAGCGGTA | 0.096 |
| AGAAACTA | 0.0387 |
| CAGCCAGA | 0.0845 |
| CAGTCGCA | -0.0051 |
| AGTGGGCA | -0.0094 |
| GGTGCGCA | 0.194 |
| CCACGCGC | -0.00781 |
| ATTAGCGC | -0.0138 |
| CAGTCCCC | -0.0494 |
| ATTCCTTA | -0.176 |
| CTCCTGAA | 0.1 |
| GAGGCGCC | 0.132 |
| AACAGCAG | 0.148 |
| AGTAAGCA | -0.0817 |
| CCCCTGAA | 0.128 |
| AGCGGAAC | 0.0182 |
| AGTAAGAA | 0.15 |
| GAGCTGAC | 0.15 |
| GATCTTGA | 0.00721 |
| AGATAGGA | -0.039 |
| AGACGAAT | 0.0206 |
| AGAGCGCG | 0.0253 |

For quick reference, copied from above (sample 3):
| Oligonucleotide | bound/input enrichment |
| --- | --- |
| UUACGCAUUGGAGUUGAUAACCACGUGUUACCCUUGGACUGUGUUACUCUGCAGACGUUCUCCGCAAAGUGCUUAGGACCCUUCGAUGAGUGGGAAAGCCGGCUAAGGGUGGCAAAGGAG | 0.123 ratio |
| GACGCCUCAGAUUUUGAGCAUAUCACUGCAGACACCCCGUCUCGGCCCCUGUCAGCCACCCGCAACCCUUUUAAGAGCUCCAAGGGCUCCCCUACUGGGAGCUCCCCAAACAAUGCAAGU | 0.373 ratio |
| ACUAACUCCUACUGCCGACGAACCGAAAAAUAAUUAAUGCAGAGGAGAUUUAUGUCUCCGCCAUAACUCCAGUUGUACAACUCAAUCGCCCCAUUCUCUUUUACGGUUCAAAAUGUACUG | 0.202 ratio |
| UAAGAUGUAUUCUGUACAUAAUUUACAAAUAAAACAUUUUAUUUUAAUUGUUACUUAUUAUUCCGACAUUUCUCAACACUGAAAUUUGUAAAACAAAAACCAUGUAAGGUAUGUUUUUAG | 0.227 ratio |
| ACUCAGAAGCCGAUUCAUCAGCUUUUUGAUUACAUCUGUGGAGUAAGCACAGGGGCCAUAUCCGCAUUUAUGCUGGGAUUGUUUCACAUGCCGCUGGAUGAAUGUGAGGAACUCUAUCGA | 0.137 ratio |
| CCACUAUCAGAAACAGAAAUGGCUCUGGGCAAGGAUGUGACUCCACCUCCAGAAACAGAAGCCGUUCUCAUCAAGAACGUAUGUCUGCCUCCAGAAAUGGAGGUGGCCCUGACUGAGGAU | 0.1 ratio |
| CAGGGACGCUUUGAUGUAAAAAUUGAAAUUAAGAGCUGAUCACAAGCACAAAUCUUUCCCACCCGCCAUUUAAUAAGUUAAAAAAAGAUACACAAACCUACUAGUCUUGAACAAACUGUC | 1.15 ratio |
| GGGCCUCUGUUCAAUACUGACUAUGACAUCCUUAAAAGCAACUUGCAGAACUGCAGCAAAUUCCGUGCUAUACAAUGUGCAGCUGCCGUCCCUAGAGCUCCUGCUGAAUCCUCUUCGUCU | 0.25 ratio |
| UGGUGUACAAAUACGACAUUUUUGCAAGAAGGAAUGCCUACUUCUGCACGAUGUGAUGAUUCCGAAGCUUUGAAAAAGAAGGGUUGCCAGCCAAGUGACAUAGAGAAUCCCAGAGGCUCU | 0.0903 ratio |
| AUUCUUUUAUCACCAAAAAAGAGAAGAAAUAUUGCAGUGAAUGAAGAUUCCUCUGCAUUUCCGCACUGCUUUUUCAACUGUAGUUGGCUUUUGAAUGAGGAUGACAAUGGAAGAGAUGAA | 0.167 ratio |
| CCCACUAAACCAUCUCUCAGGCUCCUGAGAGGUUUUUUGUUUGUUUGUUUUUGUUUUUUAAACCGGUCUCAGCUGGCCUGGAGCUUGCAGUGUAGAUCAGGCUGGCCUAGAGCUUACUGA | 0.203 ratio |
